Literature values as cited in several papers.
Values joined by “and” are separate records of one study, mostly repeats; a detail may differ. ± gives the spread as reported.
Chain of UniProt Q12809 (whole entry, looked up): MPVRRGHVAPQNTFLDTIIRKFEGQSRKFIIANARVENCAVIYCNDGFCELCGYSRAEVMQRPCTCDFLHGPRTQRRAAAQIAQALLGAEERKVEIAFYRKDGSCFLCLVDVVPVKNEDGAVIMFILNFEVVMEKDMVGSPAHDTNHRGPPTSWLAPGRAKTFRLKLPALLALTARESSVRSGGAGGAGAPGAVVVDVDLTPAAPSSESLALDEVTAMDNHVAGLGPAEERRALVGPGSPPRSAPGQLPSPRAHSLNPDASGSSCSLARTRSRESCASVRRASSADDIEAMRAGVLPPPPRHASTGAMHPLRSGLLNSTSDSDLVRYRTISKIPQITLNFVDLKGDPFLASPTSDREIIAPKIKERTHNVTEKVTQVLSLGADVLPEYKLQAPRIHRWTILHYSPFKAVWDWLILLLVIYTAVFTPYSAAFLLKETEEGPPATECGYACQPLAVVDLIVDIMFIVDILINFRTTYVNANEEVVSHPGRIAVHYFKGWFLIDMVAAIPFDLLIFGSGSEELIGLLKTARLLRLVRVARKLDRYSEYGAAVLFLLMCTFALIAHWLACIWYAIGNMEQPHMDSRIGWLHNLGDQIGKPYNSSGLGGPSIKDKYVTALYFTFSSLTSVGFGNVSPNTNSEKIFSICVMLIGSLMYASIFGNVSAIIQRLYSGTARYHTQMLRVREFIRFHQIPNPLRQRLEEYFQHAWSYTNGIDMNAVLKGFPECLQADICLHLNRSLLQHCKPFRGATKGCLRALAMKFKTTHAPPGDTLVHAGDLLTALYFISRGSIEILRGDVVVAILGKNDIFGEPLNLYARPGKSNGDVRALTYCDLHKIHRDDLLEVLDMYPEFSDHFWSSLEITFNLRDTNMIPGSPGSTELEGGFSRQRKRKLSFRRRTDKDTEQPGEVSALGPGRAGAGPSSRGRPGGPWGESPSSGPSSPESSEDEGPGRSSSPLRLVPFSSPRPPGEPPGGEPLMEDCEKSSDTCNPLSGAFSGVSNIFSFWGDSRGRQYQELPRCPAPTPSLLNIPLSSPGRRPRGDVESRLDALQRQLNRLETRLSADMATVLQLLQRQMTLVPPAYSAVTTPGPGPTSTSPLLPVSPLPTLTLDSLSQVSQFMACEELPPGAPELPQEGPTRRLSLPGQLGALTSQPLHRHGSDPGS

With CCOC(=O)C(c1cc(Cl)c2cccnc2c1O)N1CCOCC1 (stereo not drawn) the IC50 was 2.02 µM and 2.06 µM and 2.07 µM (COLO 205; cytotoxicity).
For NCCN1CCN(CC(=O)O)Cc2cccc(n2)CN(CC(=O)O)CC1, the log KH3 was 6.91 (protonation constant; 0.15 M NaCl).
COc1cc2nc(c1)CNCCNCCNC2.[Cu+2] — result for “anodic peak potential”: -906 mV (cyclic voltammetry; DMF; scan rate 100 mV/s; reference: Fc/Fc+).
The IC50 of COc1nc(-c2cc(C)c(NC(C)c3ccc(F)cc3)nn2)ccc1-n1cnc(C)c1 (stereo not drawn) is reported as 6.2 µM (hERG; channel function).
Cc1ccc2c(c1)nc(CCN1C(=O)c3cccc4cccc(c34)C1=O)n2-c1ccncc1 has a Cmax of 32 ng/mL (Sprague-Dawley rat; oral, 10 mg/kg).
CCOC(=O)C(c1cc(Cl)c2cccnc2c1O)c1c[nH]c2ncccc12 (stereo not drawn) gave an IC50 of 4.92 µM and 5.16 µM and 5.11 µM (COLO 320 ABCB1-resistant colon; cytotoxicity).
The tissue uptake of COc1ccc(Nc2nc(Nc3ccc(OCC[18F])cc3)ncc2Br)cc1 is reported as 1.62 ± 0.23 %ID/g (S180 tumour-bearing mice, kidney; intravenous, 15 min).
CC1(N(CC(=O)O)CC(=O)O)CN(CC(=O)O)CCN(CC(=O)O)C1: “protonation constant (log)” 1.56 (pH-potentiometry, refers to: logK5H; 0.1 M KCl; 25 °C).
The log KH2 of O=C(O)CN1CCOCCN(CC(=O)O)Cc2cccc(n2)C1 is reported as 7.66 (protonation constant; 0.15 M NaCl).
c1cnc2[nH]cc(C3NCCc4sccc43)c2c1 (stereo not drawn) gave an IC50 of over 100 µM (COLO 320 ABCB1-resistant colon; cytotoxicity).
For Cn1cc(C(=O)NCc2ccc(Cl)cc2)c(=O)c2cc(CN3CCOCC3)sc21, the Hill slope was 0.89 (KCNH2 (Homo sapiens, UniProt Q12809)).
For O=C(O)CN(CC(=O)O)[C@H]1CCCC[C@@H]1N(CC(=O)O)Cc1ccccn1, the log KH3 was 3.13 (protonation constant; 0.15 M NaCl).
Oc1c(Cc2c[nH]c3ncccc23)cc(Cl)c2cccnc12 has an IC50 of 23 µM and 22.5 µM and 21.9 µM (COLO 320 ABCB1-resistant colon; cytotoxicity).
The log KH2 of O=C(O)CN1CCNCCN(CC(=O)O)Cc2cccc(n2)C1 is reported as 5.97 (protonation constant; 0.15 M NaCl).
CCOC(=O)C(c1ccc2ccccc2c1O)c1c[nH]c2ccccc12 (stereo not drawn) gave an IC50 of over 100 µM (COLO 205; cell viability).

Repeated from above:
CCOC(=O)C(c1cc(Cl)c2cccnc2c1O)c1c[nH]c2ncccc12 (stereo not drawn) gave an IC50 of 4.92 µM and 5.16 µM and 5.11 µM (COLO 320 ABCB1-resistant colon; cytotoxicity).
